# Published values of several laboratories.
# Numbered parts are unrelated; each lists some results of a single study.
# Chain of UniProt Q13043 (whole entry, looked up): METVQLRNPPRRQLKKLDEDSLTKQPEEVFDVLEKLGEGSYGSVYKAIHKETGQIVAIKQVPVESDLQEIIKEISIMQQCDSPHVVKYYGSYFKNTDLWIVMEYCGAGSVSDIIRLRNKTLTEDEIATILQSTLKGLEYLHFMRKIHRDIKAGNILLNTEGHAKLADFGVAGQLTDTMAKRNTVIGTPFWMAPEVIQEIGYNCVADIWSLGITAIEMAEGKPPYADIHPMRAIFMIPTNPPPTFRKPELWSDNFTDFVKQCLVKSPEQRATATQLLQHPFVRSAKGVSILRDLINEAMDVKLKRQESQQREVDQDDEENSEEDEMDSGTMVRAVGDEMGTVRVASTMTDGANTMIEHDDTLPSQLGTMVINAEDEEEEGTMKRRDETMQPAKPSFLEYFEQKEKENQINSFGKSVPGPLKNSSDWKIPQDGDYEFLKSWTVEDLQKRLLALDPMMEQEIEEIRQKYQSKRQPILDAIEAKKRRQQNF
# Chain of UniProt P0C264 (whole entry, looked up): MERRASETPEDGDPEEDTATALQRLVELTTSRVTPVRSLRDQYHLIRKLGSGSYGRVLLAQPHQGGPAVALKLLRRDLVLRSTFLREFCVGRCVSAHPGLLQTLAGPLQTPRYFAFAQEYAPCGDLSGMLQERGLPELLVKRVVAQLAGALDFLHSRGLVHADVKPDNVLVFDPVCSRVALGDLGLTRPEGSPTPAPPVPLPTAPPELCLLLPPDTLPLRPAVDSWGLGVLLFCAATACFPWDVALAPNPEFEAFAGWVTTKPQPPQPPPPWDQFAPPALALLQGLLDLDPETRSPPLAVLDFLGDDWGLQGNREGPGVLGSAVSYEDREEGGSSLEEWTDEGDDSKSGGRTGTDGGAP
# Chain of UniProt P10721 (whole entry, unmodified, looked up): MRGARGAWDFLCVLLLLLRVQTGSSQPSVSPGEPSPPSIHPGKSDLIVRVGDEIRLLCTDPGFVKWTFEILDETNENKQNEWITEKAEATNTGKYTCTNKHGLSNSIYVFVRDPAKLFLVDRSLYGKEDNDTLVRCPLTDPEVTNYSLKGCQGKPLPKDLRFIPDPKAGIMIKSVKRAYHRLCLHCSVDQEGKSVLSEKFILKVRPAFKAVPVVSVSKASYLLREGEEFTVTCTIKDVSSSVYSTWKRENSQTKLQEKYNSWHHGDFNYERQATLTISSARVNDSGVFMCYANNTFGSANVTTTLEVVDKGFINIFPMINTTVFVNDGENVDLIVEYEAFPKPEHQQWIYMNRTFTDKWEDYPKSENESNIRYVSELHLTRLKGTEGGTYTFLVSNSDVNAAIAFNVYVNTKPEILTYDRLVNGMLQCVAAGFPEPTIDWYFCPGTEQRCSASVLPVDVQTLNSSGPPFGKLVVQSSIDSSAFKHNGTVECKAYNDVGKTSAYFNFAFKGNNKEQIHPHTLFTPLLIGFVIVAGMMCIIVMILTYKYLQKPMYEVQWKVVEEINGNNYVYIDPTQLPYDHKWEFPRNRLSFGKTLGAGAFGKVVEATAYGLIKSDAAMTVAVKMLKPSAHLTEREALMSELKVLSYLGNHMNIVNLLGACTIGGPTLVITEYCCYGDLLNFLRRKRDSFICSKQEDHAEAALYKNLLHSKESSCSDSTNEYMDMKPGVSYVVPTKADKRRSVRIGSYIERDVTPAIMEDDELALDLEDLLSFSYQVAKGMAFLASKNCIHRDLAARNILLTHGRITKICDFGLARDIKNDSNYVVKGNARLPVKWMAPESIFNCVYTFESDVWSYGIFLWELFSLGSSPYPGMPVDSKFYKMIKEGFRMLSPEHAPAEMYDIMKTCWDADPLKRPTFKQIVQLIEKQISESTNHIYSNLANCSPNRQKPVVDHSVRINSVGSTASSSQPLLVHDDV
# Chain of UniProt Q13464 (whole entry, looked up): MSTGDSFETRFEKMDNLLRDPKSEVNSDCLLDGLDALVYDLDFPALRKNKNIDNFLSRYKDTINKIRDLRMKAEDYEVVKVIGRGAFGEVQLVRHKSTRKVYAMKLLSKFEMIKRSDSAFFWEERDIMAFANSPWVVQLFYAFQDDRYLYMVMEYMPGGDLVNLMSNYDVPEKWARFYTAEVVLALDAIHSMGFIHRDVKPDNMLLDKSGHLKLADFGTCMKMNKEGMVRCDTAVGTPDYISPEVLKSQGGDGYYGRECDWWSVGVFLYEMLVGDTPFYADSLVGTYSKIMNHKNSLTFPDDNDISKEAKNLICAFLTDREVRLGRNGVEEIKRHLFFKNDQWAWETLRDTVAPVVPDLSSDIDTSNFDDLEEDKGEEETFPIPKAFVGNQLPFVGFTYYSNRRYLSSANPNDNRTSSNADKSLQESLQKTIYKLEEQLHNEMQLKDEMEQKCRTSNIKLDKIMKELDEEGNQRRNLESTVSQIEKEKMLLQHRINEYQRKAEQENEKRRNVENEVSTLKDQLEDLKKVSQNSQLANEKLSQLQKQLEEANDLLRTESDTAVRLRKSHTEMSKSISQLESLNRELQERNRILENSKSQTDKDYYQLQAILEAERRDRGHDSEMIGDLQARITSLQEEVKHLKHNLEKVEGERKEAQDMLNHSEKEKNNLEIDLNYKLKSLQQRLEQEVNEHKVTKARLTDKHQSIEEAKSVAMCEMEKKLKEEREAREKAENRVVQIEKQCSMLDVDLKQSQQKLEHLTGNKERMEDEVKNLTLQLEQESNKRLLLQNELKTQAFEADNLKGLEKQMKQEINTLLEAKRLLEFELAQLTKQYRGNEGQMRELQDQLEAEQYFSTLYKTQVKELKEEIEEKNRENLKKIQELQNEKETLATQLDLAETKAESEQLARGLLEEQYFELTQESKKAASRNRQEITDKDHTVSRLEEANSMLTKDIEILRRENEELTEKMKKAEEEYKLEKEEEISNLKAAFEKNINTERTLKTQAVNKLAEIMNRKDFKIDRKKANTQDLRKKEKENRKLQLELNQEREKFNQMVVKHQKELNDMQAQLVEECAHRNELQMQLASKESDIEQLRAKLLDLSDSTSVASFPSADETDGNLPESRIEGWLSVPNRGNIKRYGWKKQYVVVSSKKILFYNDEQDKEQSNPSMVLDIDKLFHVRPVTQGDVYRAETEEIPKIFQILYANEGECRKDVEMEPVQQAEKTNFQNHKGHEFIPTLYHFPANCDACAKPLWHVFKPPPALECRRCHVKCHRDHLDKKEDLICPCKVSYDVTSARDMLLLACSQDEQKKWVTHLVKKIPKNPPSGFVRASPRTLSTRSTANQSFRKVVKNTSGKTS

# Set 1 — observed: enzyme activity; action: inhibitor; tested at: 0.5 µM; relative to: control
# Target: Serine/threonine-protein kinase D1 (PRKD1, Homo sapiens, UniProt Q15139)
# Chain of UniProt Q15139 (whole entry, looked up): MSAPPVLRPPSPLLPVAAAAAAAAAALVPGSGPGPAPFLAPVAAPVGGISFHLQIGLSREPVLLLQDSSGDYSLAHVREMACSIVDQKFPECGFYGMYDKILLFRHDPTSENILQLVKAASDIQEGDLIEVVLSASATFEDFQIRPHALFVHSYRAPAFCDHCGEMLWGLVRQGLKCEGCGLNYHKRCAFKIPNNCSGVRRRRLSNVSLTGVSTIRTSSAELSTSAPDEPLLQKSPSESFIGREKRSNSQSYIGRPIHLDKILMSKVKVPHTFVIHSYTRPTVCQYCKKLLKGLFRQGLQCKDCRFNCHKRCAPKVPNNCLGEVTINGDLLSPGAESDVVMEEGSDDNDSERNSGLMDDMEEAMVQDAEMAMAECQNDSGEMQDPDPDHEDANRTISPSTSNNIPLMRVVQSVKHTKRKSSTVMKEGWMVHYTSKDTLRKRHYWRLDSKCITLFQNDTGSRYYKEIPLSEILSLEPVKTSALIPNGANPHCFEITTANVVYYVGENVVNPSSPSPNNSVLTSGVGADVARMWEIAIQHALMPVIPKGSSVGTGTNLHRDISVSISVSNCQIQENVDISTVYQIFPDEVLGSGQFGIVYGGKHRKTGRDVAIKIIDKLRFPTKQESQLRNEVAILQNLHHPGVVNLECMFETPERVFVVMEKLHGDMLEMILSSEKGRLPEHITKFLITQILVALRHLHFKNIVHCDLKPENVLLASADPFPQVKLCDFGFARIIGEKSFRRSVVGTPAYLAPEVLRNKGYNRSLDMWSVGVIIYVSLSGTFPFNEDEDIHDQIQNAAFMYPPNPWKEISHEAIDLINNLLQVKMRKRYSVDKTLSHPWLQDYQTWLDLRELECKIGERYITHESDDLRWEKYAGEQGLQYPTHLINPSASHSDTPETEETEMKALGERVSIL
Compound,remaining activity [%]
O=C(CCCc1ccc(-c2ccccc2F)cc1)Nc1ccc(O)cc1,98.4
Cc1cccc(-c2[nH]c(C(C)(C)C)nc2-c2ccc3c(c2)OCO3)n1,92.3
N#CC(C#N)=C(N)/C(C#N)=C/c1ccc(O)cc1,101
CO[C@H]1C[C@@H]2CC[C@@H](C)[C@@](O)(O2)C(=O)C(=O)N2CCCC[C@H]2C(=O)O[C@H]([C@H](C)C[C@@H]2CC[C@@H](O)[C@H](OC)C2)CC(=O)[C@H](C)/C=C(\C)[C@@H](O)[C@@H](OC)C(=O)[C@H](C)C[C@H](C)/C=C/C=C/C=C/1C,98.2
O=C1NC(=O)C(c2cn(CCCO)c3ncccc23)=C1c1cnccn1,107
Cn1sc(=O)n(Cc2ccccc2)c1=O,101
O=S(=O)(c1cccc2cnccc12)N1CCCNCC1,65.1
COc1ccc(C(=O)Nc2sc3c(c2C(N)=O)CCCC3)cc1OC,99.6
Nc1ncnc2n[nH]c(Nc3ccc(F)cc3)c12,98.9
COc1cc2ncnc(Nc3ccc(Oc4ccccc4)cc3)c2cc1OC,95.6
Nc1ccc2ncnc(NCCc3ccc(Oc4ccccc4)cc3)c2c1,99.3
OCC(O)CCON=C1C(c2c(O)[nH]c3ccccc23)=Nc2ccccc21 (stereo not drawn),72.7
Cc1nc(-c2ccccc2)c(-c2ccncc2)o1,95.6
CC(C)[C@H](CO)Nc1nc(Nc2cc(N)cc(Cl)c2)c2ncn(C(C)C)c2n1,94.2
Oc1ccc(-c2nc(-c3ccncc3)c(-c3ccc(F)cc3)[nH]2)cc1,90.7

# Set 2 — host: human; sample: plasma; route: oral
# SMILES: COc1ccc(-c2c(Nc3ccccn3)[nH]c3c(C4=CCCCC4)c(-c4ccccc4)nn3c2=O)cc1
method,dose,time,setting,Cmax [ng/mL]
,50 mg once daily,,"multiple doses, patients",1710
LC-MS/MS non-compartmental,200 mg,day -3 of cycle 0,"single dose, geometric mean",1550
LC-MS/MS non-compartmental,50 mg once daily,cycle 1,,1630

# Set 3 — SMILES: CC(C)(O)c1cncc(-c2nc3ccc(F)cc3n2C2CC2)c1; observed: cell-free assay; method: competition with immobilised ligand; tested at: 1 µM
target,remaining binding
"Serine/threonine-protein kinase 4 (STK4, Homo sapiens, UniProt Q13043)",100%
"Rho-associated protein kinase 1 (ROCK1, Homo sapiens, UniProt Q13464)",99%
"Uncharacterized serine/threonine-protein kinase SBK3 (SBK3, Homo sapiens, UniProt P0C264)",77%
"Mast/stem cell growth factor receptor Kit (KIT, Homo sapiens, UniProt P10721, D816V)",100%

# Set 4 — cell line: mouse MPNST tumor cells; method: high-content nuclear imaging; item: cell number; tested at: 10 µM; time: 12 h; setting: mean of 2 replicates; relative to: plate mean; direction: higher = more cells
Structure (SMILES),nuclei count
Cc1cccc2c1CC[C@H](CN1CCC(c3c(Cl)cccc3Cl)CC1)C[C@@H]2O,-0.494 z-score
O=[N+]([O-])c1ccc(CSc2ncnc3c2ncn3[C@@H]2O[C@H](CO)[C@@H](O)[C@H]2O)cc1,1.47 z-score
CCCCCCCCCCCCc1ccc(S(=O)(=O)Nc2nncs2)cc1,0.401 z-score
NC(N)=N/N=C/c1ccccc1Cl,2.73 z-score
C1CCC(C(CC2CCCCN2)C2CCCCC2)CC1 (stereo not drawn),-5.36 z-score
CCOc1c2c(c(OCC)c3ccccc13)C(=O)N(c1ccc(CC(=O)NS(=O)(=O)c3ccccc3)cc1)C2,1.99 z-score

# Set 5 — cell line: A-375; tested at: 100 µM; time: 36 h
Structure (SMILES),viability [%]
O=c1oc2cc(O)ccc2s1,107
COc1c2occc2cc2ccc(=O)oc12,106
NS(=O)(=O)c1cc2c(cc1Cl)NCNS2(=O)=O,107
Cc1ccccc1C(=O)Nc1ccc(C(=O)N2CCCC(O)c3cc(Cl)ccc32)c(C)c1 (stereo not drawn),73.4
COC(=O)N[C@H](C(=O)N1CCC[C@H]1c1nc(-c2ccc(-c3ccc(-c4c[nH]c([C@@H]5CCCN5C(=O)[C@@H](NC(=O)OC)C(C)C)n4)cc3)cc2)c[nH]1)C(C)C,9.23
